Measured values of several laboratories.
Lines come from different studies, so protocols differ. ± gives the spread as reported. Values after ≈ are worked out from the molar mass of the structure shown.

The IC50 of `COc1ccc(C(=O)OC2C(OC3C(O)COC(OC4CC5C6CC=C7CC(O)CCC7(C)C6CCC5(C)C4(O)C(C)C(=O)CCC(C)C)C3OC(C)=O)OCC(O)C2O)cc1` (stereo not shown) is reported as 0.0005 µM (Human coronavirus 229E; viral replication, imaging; MRC5; 24 h).
With `CC[C@H](C)[C@H](NC(=O)[C@H](C)NC(=O)[C@H](C)NC(=O)[C@H](Cc1ccccc1)NC(=O)[C@H](C)NC(=O)CNC(=O)[C@H](Cc1ccccc1)NC(=O)[C@@H](N)Cc1ccccc1)C(=O)N[C@@H](C)C(=O)N[C@@H](CO)C(=O)N[C@@H](CC(C)C)C(=O)N[C@H](C(=O)N[C@H](C(=O)N1CCC[C@H]1C(=O)N[C@@H](CCCCN)C(=O)N[C@@H](CC(C)C)C(=O)N[C@H](C(=O)N[C@@H](CCC(=O)O)C(=O)N[C@@H](CCCCN)C(=O)N[C@H](C(=O)N[C@@H](CCCCN)C(=O)N[C@@H](CCC(N)=O)C(=O)N[C@@H](C)C(=O)N[C@@H](CCCNC(=N)N)C(N)=O)[C@@H](C)CC)[C@@H](C)CC)[C@@H](C)CC)C(C)C` the MIC was > 50 µM (Aspergillus flavus; ATP luminescence; ATCC 9170; 48 h, 37 °C).
With `N=C(N)N1CC23C4CCC5C4C4C2CCC4C53C1` the EC50 was > 100 µM (Influenza A virus; viral replication; MDCK, H3N2 A/HK/7/87).
The IC50 of `CCN(CC)CC#CCOC(=O)[C@]1(C)CCC[C@]2(C)[C@H]3C[C@H]4C(C(C)C)=C[C@]3(CC[C@H]21)[C@@H]1C(=O)CCC(=O)[C@@H]14` is reported as 10.5 µM (Influenza A virus; viral replication; MDCK, A/Puerto Rico/8/34 (H1N1)).
The MIC90 of `Cc1cc(Oc2nc(N3CC[C@@H](c4ccncc4)C3)ncc2F)[nH]n1` is reported as 0.0291 ± 0.0017 µM (Mycobacterium tuberculosis; H37Rv, cholesterol medium).
For `NCC12C3CCC4C3C3C(CCC31)C42`, the EC50 was 9 µM (Influenza A virus; viral replication; MDCK, H1N1 A/PR/8/34).
For `CC(C)C1=C[C@@]23CC[C@@H]4[C@](C)(CCC[C@@]4(C)C(=O)NCC#CCN4CCCNCC4)[C@H]2C[C@@H]1[C@H]1C(=O)OC(=O)[C@H]13`, the selectivity index was 2.01 (Influenza A virus; MDCK, A/Puerto Rico/8/34 (H1N1); relative to: CC50 over IC50).
With `CC[C@H](C)[C@H](NC(=O)[C@H](CCCNC(=N)N)NC(=O)[C@H](CCCCN)NC(=O)[C@H](CC(C)C)NC(=O)[C@H](CC(C)C)NC(=O)CN)C(=O)N[C@@H](CCCCN)C(=O)N[C@H](C(=O)N[C@@H](CC(C)C)C(=O)N[C@@H](CC(C)C)C(=O)NCCCC[C@H](NC(=O)[C@H](CCCCNC(=O)[C@H](CC(C)C)NC(=O)[C@H](CC(C)C)NC(=O)[C@@H](NC(=O)[C@H](CCCCN)NC(=O)[C@@H](NC(=O)[C@H](CCCNC(=N)N)NC(=O)[C@H](CCCCN)NC(=O)[C@H](CC(C)C)NC(=O)[C@H](CC(C)C)NC(=O)CN)[C@@H](C)CC)[C@@H](C)O)NC(=O)[C@H](CC(C)C)NC(=O)[C@H](CC(C)C)NC(=O)[C@@H](NC(=O)[C@H](CCCCN)NC(=O)[C@@H](NC(=O)[C@H](CCCNC(=N)N)NC(=O)[C@H](CCCCN)NC(=O)[C@H](CC(C)C)NC(=O)[C@H](CC(C)C)NC(=O)CN)[C@@H](C)CC)[C@@H](C)O)C(N)=O)[C@@H](C)O` the FIC index was 0.375 (Klebsiella pneumoniae; checkerboard; ATCC 700603; added: rifampicin).
For `COc1ccc2nc(C)cc(OCC(=O)Nc3ccccc3OC)c2c1`, the MIC was 64 µM (≈ 22.6 µg/mL) (Haemophilus influenzae; microbial growth, broth dilution; H128).
For `CC[C@H](C)[C@H](NC(=O)[C@H](C)NC(=O)[C@H](CCC(=O)O)NC(=O)[C@H](CCC(=O)O)NC(=O)[C@H](CC(C)C)NC(=O)[C@H](CCCCN)NC(=O)[C@H](CCCCN)NC(=O)[C@H](CCSC)NC(=O)[C@H](CCC(=O)O)NC(=O)[C@H](Cc1ccc(O)cc1)NC(=O)[C@H](CCC(=O)O)NC(=O)[C@H](CC(C)C)NC(=O)[C@H](CC(=O)O)NC(=O)[C@H](CC(C)C)NC(=O)[C@H](Cc1ccccc1)NC(=O)[C@@H](NC(=O)[C@@H](NC(=O)[C@@H](N)CC(N)=O)C(C)C)[C@@H](C)O)C(=O)N[C@@H](CCCCN)C(=O)N[C@@H](CCCCN)C(=O)N[C@@H](CC(C)C)C(=O)N[C@@H](CCC(=O)O)C(=O)N[C@@H](CCC(=O)O)C(=O)N[C@@H](CO)C(=O)N[C@@H](Cc1ccc(O)cc1)C(=O)N[C@H](C(=O)N[C@@H](CC(=O)O)C(=O)N[C@@H](CC(C)C)C(=O)N[C@@H](CCCCN)C(=O)N[C@@H](CCC(=O)O)C(=O)N[C@@H](CC(C)C)C(=O)NCC(=O)N[C@H](C(=O)N[C@@H](Cc1ccc(O)cc1)C(=O)N[C@@H](CCC(=O)O)C(=O)N[C@@H](Cc1ccc(O)cc1)C(=O)NCC(=O)N[C@@H](CO)C(=O)NCC(=O)N[C@@H](CSCC(=O)O[C@H]1CC[C@@]2(C)C(=CC[C@H]3[C@@H]4CC[C@H]([C@H](C)CCCC(C)C)[C@@]4(C)CC[C@@H]32)C1)C(N)=O)[C@@H](C)O)[C@@H](C)CC`, the IC50 was 0.035 µM (HCoV-NL63; viral entry; pseudotyped virus).
For `Cc1cccc(-c2nc(Nc3ccncn3)c3sccc3n2)n1`, the MIC was 8 µM (≈ 2.56 µg/mL) (Haemophilus influenzae; microbial growth, broth dilution; H128).
The FIC index of `CCCC(=O)NCC(=O)N[C@@H](CC(C)C)C(=O)N[C@@H](CC(C)C)C(=O)N[C@@H](CCCCN)C(=O)N[C@@H](CCCNC(=N)N)C(=O)N[C@H](C(=O)N[C@@H](CCCCN)C(=O)N[C@H](C(=O)N[C@@H](CC(C)C)C(=O)N[C@@H](CC(C)C)C(=O)NCCCC[C@H](NC(=O)[C@H](CC(C)C)NC(=O)[C@H](CC(C)C)NC(=O)[C@@H](NC(=O)[C@H](CCCCN)NC(=O)[C@@H](NC(=O)[C@H](CCCNC(=N)N)NC(=O)[C@H](CCCCN)NC(=O)[C@H](CC(C)C)NC(=O)[C@H](CC(C)C)NC(=O)CNC(=O)CCC)[C@@H](C)CC)[C@@H](C)O)C(=O)NCCCC[C@H](NC(=O)[C@H](CCCCNC(=O)[C@H](CC(C)C)NC(=O)[C@H](CC(C)C)NC(=O)[C@@H](NC(=O)[C@H](CCCCN)NC(=O)[C@@H](NC(=O)[C@H](CCCNC(=N)N)NC(=O)[C@H](CCCCN)NC(=O)[C@H](CC(C)C)NC(=O)[C@H](CC(C)C)NC(=O)CNC(=O)CCC)[C@@H](C)CC)[C@@H](C)O)NC(=O)[C@H](CC(C)C)NC(=O)[C@H](CC(C)C)NC(=O)[C@@H](NC(=O)[C@H](CCCCN)NC(=O)[C@@H](NC(=O)[C@H](CCCNC(=N)N)NC(=O)[C@H](CCCCN)NC(=O)[C@H](CC(C)C)NC(=O)[C@H](CC(C)C)NC(=O)CNC(=O)CCC)[C@@H](C)CC)[C@@H](C)O)C(N)=O)[C@@H](C)O)[C@@H](C)CC` is reported as 0.375 (Klebsiella pneumoniae; checkerboard; ATCC 700603; added: gentamicin).
Under “nucleocapsid protein level”, `CONC(=O)[C@@H]1[C@H](O)[C@]2(O)c3c(OC)cc(OC)cc3O[C@]2(c2ccc(OC)cc2)[C@H]1c1ccccc1` is recorded as “no effect” (Human coronavirus 229E; concentration not given).
For `COc1ccc(-c2ccn(CC[C@](C)(C(=O)NO)S(C)(=O)=O)c(=O)c2)c(F)c1`, the MIC90 was 0.5 µg/mL (Burkholderia cepacia).
`Cc1ccc2nc(C(F)(F)F)c(C(=O)NCc3cccc(Cl)c3)n2c1` has an MIC of 64 µM (≈ 23.5 µg/mL) (Haemophilus influenzae; broth microdilution; H128 AcrA-).
With `CCCCCCCC(=O)NCC(=O)N[C@@H](CC(C)C)C(=O)N[C@@H](CC(C)C)C(=O)N[C@@H](CCCCN)C(=O)N[C@@H](CCCNC(=N)N)C(=O)N[C@H](C(=O)N[C@@H](CCCCN)C(=O)N[C@H](C(=O)N[C@@H](CC(C)C)C(=O)N[C@@H](CC(C)C)C(N)=O)[C@@H](C)O)[C@@H](C)CC` the FIC index was 0.562 (Klebsiella pneumoniae; checkerboard; ATCC 700603; added: gentamicin).
The MIC of `CC[C@H](C)[C@H](NC(=O)[C@@H](NC(=O)[C@H](CCCCN)NC(=O)[C@H](CC(=O)O)NC(=O)[C@H](CCCCN)NC(=O)[C@H](Cc1ccccc1)NC(=O)[C@H](Cc1ccccc1)NC(=O)[C@H](CO)NC(=O)[C@H](CCCCN)NC(=O)[C@H](CCSC)NC(=O)[C@H](CCCCN)NC(=O)[C@H](CCCCN)NC(=O)[C@H](Cc1c[nH]c2ccccc12)NC(=O)[C@@H](N)Cc1ccccc1)C(C)C)C(=O)N1CCC[C@H]1C(=O)N[C@@H](CCCCN)C(=O)N[C@H](C(=O)N[C@@H](CCC(N)=O)C(=O)N[C@@H](CCC(N)=O)C(=O)N[C@@H](C)C(=O)N[C@@H](Cc1ccc(O)cc1)C(=O)N[C@@H](CO)C(=O)N[C@@H](CC(C)C)C(=O)N[C@@H](Cc1ccc(O)cc1)C(=O)N[C@@H](CC(N)=O)C(=O)N[C@@H](CCCCN)C(=O)N[C@@H](CC(C)C)C(=O)N[C@@H](CCC(N)=O)C(=O)N[C@@H](Cc1c[nH]cn1)C(=O)N[C@@H](CCCCN)C(=O)N[C@@H](CC(C)C)C(N)=O)C(C)C` is reported as > 50 µM (Aspergillus flavus; ATP luminescence; ATCC 9170; 48 h, 37 °C).
The FIC index of `CCCC(=O)NCC(=O)N[C@@H](CC(C)C)C(=O)N[C@@H](CC(C)C)C(=O)N[C@@H](CCCCN)C(=O)N[C@@H](CCCNC(=N)N)C(=O)N[C@H](C(=O)N[C@@H](CCCCN)C(=O)N[C@H](C(=O)N[C@@H](CC(C)C)C(=O)N[C@@H](CC(C)C)C(=O)NCCCC[C@H](NC(=O)[C@H](CC(C)C)NC(=O)[C@H](CC(C)C)NC(=O)[C@@H](NC(=O)[C@H](CCCCN)NC(=O)[C@@H](NC(=O)[C@H](CCCNC(=N)N)NC(=O)[C@H](CCCCN)NC(=O)[C@H](CC(C)C)NC(=O)[C@H](CC(C)C)NC(=O)CNC(=O)CCC)[C@@H](C)CC)[C@@H](C)O)C(N)=O)[C@@H](C)O)[C@@H](C)CC` is reported as 0.625 (Klebsiella pneumoniae; checkerboard; ATCC 700603; added: gentamicin).
The EC50 of `CCC1(CC)C2CC3CC(C2)CC1(N(C)C)C3` is reported as 23 ± 3 µM (Influenza A virus; viral replication; MDCK, A/Ned/378/05 (H1N1)).

For quick reference, copied from above:
With `CCCCCCCC(=O)NCC(=O)N[C@@H](CC(C)C)C(=O)N[C@@H](CC(C)C)C(=O)N[C@@H](CCCCN)C(=O)N[C@@H](CCCNC(=N)N)C(=O)N[C@H](C(=O)N[C@@H](CCCCN)C(=O)N[C@H](C(=O)N[C@@H](CC(C)C)C(=O)N[C@@H](CC(C)C)C(N)=O)[C@@H](C)O)[C@@H](C)CC` the FIC index was 0.562 (Klebsiella pneumoniae; checkerboard; ATCC 700603; added: gentamicin).
The MIC of `CC[C@H](C)[C@H](NC(=O)[C@@H](NC(=O)[C@H](CCCCN)NC(=O)[C@H](CC(=O)O)NC(=O)[C@H](CCCCN)NC(=O)[C@H](Cc1ccccc1)NC(=O)[C@H](Cc1ccccc1)NC(=O)[C@H](CO)NC(=O)[C@H](CCCCN)NC(=O)[C@H](CCSC)NC(=O)[C@H](CCCCN)NC(=O)[C@H](CCCCN)NC(=O)[C@H](Cc1c[nH]c2ccccc12)NC(=O)[C@@H](N)Cc1ccccc1)C(C)C)C(=O)N1CCC[C@H]1C(=O)N[C@@H](CCCCN)C(=O)N[C@H](C(=O)N[C@@H](CCC(N)=O)C(=O)N[C@@H](CCC(N)=O)C(=O)N[C@@H](C)C(=O)N[C@@H](Cc1ccc(O)cc1)C(=O)N[C@@H](CO)C(=O)N[C@@H](CC(C)C)C(=O)N[C@@H](Cc1ccc(O)cc1)C(=O)N[C@@H](CC(N)=O)C(=O)N[C@@H](CCCCN)C(=O)N[C@@H](CC(C)C)C(=O)N[C@@H](CCC(N)=O)C(=O)N[C@@H](Cc1c[nH]cn1)C(=O)N[C@@H](CCCCN)C(=O)N[C@@H](CC(C)C)C(N)=O)C(C)C` is reported as > 50 µM (Aspergillus flavus; ATP luminescence; ATCC 9170; 48 h, 37 °C).
